Measurements of several laboratories.
Every numbered part comes from another study and shows a few of its results, in no order. Positions count from the first letter of the parent shown.

Sample 1
Target: Fragile X messenger ribonucleoprotein 1, C-terminal low-complexity region (Fmr1, Mus musculus, UniProt P35922)
Method: RNA Bind-n-Seq
Form: RNA
Sample: in vitro
Tested at: 200 nM
Notes: whole 134-nt RNA, ends assumed
With: 150 mM LiCl
Baseline: input library
Direction: higher = stronger binding
All molecules: 7-deaza-guanosine replaces G
Shared flanks, not repeated: GGGAGUUCUACAGUCCGACGAUC … UGGAAUUCUCGGGUGUCAAGG
| Oligonucleotide | log2 enrichment |
| --- | --- |
| UCCUGUGCUACACAUCGUAUGUACCGAAUCGGGUUUUUGGGAAAAAGGGUUUUUUUGGGAAAGUAUUAUGUUACGCCGUUCGGAUCUGCA | -1.83 |
| CUGUGCUACACAUCGUAUGUACCGAAUCGGGGAAAAAAAGGAAAAAAAGGGAAAAAAAGGGAAAGUAUUAUGUUACGCCGUUCGGAUCUG | -0.174 |
| UCCUGUGCUACACAUCGUAUGUACCGAAUCAAACCCCCAAAUUUUUAAACCCCCCCAAAAAAGUAUUAUGUUACGCCGUUCGGAUCUGCA | 2.26 |
| UCAAGUCCUGUGCUACACAUCGUAUGUACCGAAUCGGGGAAGGGGAAGGGAAGGGAAAGUAUUAUGUUACGCCGUUCGGAUCUGCACUUC | -0.709 |
| GUCCUGUGCUACACAUCGUAUGUACCGAAUCGGGUUUUUUUGGGUUUUUUUGGGUGGGAAAGUAUUAUGUUACGCCGUUCGGAUCUGCAC | -1.3 |
| UCAAGUCCUGUGCUACACAUCGUAUGUACCGAAUCGGGUUGGUUGGGGUUGGGGAAAGUAUUAUGUUACGCCGUUCGGAUCUGCACUUCC | -1.3 |
| CAAGUCCUGUGCUACACAUCGUAUGUACCGAAUCGGGGUUUGGGGUUUGGUUUGGAAAGUAUUAUGUUACGCCGUUCGGAUCUGCACUUC | -0.97 |
| GCAGGAAGUAAAAACAAAUGGAAAUGCUUCGGAUAGUGGCAGGGGUGGGGGUUGCUAAAGAAAGGGUGGGAUGGGAGUGGGUAAAGAGUU | 1.8 |
| UCCUCAAGUCCUGUGCUACACAUCGUAUGUACCGAAUCGGAGGUUUGGAGGAAAGUAUUAUGUUACGCCGUUCGGAUCUGCACUUCCAGC | -1.63 |
| CCUCAAGUCCUGUGCUACACAUCGUAUGUACCGAAUCGGGGCGGCGGGCGGGAAAGUAUUAUGUUACGCCGUUCGGAUCUGCACUUCCAG | -1.07 |
| AAGUCCUGUGCUACACAUCGUAUGUACCGAAUCGGGAAAAAGGGAGGGUUUUUGGGAAAGUAUUAUGUUACGCCGUUCGGAUCUGCACUU | -1.8 |

Sample 2
Target: CCNF, cyclin fold, Cln2 fusion (human)
Method: yeast growth competition, sequencing
Sample: yeast
Notes: strong parent motif
Baseline: not given
Direction: higher = stronger binding
Starting sequence: MICAL3 docking peptide (human); LQLRRQLSFSEDS
| Substitution | normalised enrichment score |
| --- | --- |
| R5C | 0.39 |
| L7Q | 0.205 |
| S10A | 5.42 |
| Q2F | 5.01 |
| S10D | 5.04 |
| R5K | 1.41 |
| S8H | 8.05 |
| E11H | 4.98 |
| Q6T | 3.42 |
| F9W | 1.27 |
| S10Q | 5.02 |
| Q6S | 3.77 |
| R4K | 3.01 |
| R5D | 0.166 |
| L3D | 0.379 |
| S8Y | 7.78 |
| Q2K | 5.47 |
| S10P | 6.22 |
| E11R | 4.2 |
| S8Q | 8.08 |
| L3W | 3.43 |

Sample 3
Target: Myc proto-oncogene protein, bHLH-zipper, MAX partner unstated (MYC, Homo sapiens, UniProt P01106, residues 368-449)
UniProt P01106, sequence (368-449, looked up): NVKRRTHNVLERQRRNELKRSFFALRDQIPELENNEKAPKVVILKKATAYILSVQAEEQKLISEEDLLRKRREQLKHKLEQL
Method: protein-binding microarray
Form: double-stranded DNA, one strand shown
Sample: in vitro
Tested at: not given
Notes: k-mer, scored over probes, only values ≥0.25
Direction: higher = stronger binding
| Oligonucleotide | E-score |
| --- | --- |
| ACACGGGG | 0.38 |
| CGTGCAAA | 0.285 |
| AACCTCAT | 0.324 |
| AGTCCATG | 0.27 |
| ACGTGGCC | 0.413 |
| ATGGGGCG | 0.32 |
| GCGTGACA | 0.389 |
| CGGCCACA | 0.287 |
| AGCACGTG | 0.493 |
| CATATGGA | 0.287 |
| AACACGAT | 0.315 |
| AACGTGAT | 0.292 |
| ACATGCCG | 0.419 |
| ACCCCACC | 0.321 |
| GCACCCAC | 0.335 |

Sample 4
Target: ABI1, truncated, D143A, DHFR fusion (Arabidopsis thaliana)
Method: DHFR PCA, deep sequencing
Sample: yeast
Notes: methotrexate growth selection, single substitutions
With: (+)-ABA 0.39 µM
Baseline: wild-type fitted maximum
Direction: higher = stronger binding
Starting sequence: PYL1, truncated, DHFR fusion (Arabidopsis thaliana); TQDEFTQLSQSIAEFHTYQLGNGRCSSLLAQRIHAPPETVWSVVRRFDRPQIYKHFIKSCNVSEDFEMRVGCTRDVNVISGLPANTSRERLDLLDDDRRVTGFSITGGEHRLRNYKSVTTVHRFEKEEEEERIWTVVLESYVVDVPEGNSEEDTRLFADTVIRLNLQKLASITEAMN
| Substitution | relative binding score [%] |
| --- | --- |
| T1E | 49.6 |
| W41S | 2.31 |
| G108R | -4.38 |
| L166E | 3.32 |
| G148D | 9.03 |
| M176T | 26.7 |
| T154P | -15.7 |
| L29M | 6.27 |
| V62C | 3.19 |
| V143C | 46.3 |
| R98P | -1.27 |
| E38Q | 11.7 |
| L169Y | -10 |
| Y53K | -10.3 |
| V78N | 39.2 |

Sample 5
Target: Hepatocyte nuclear factor 3-alpha (Foxa1, Mus musculus, UniProt P35582, residues 1-468, full length assumed)
Method: EMSA with sequencing
Form: double-stranded DNA, one strand shown
Sample: in vitro
Tested at: 10 and 20 nM
Notes: whole designed probe, mean of two concentrations, ends assumed
Baseline: negative control set to 0
Direction: higher = stronger binding
Shared flanks, not repeated: GTGAGCGGTGCCCATTGATGGGGAAC … TTTCACTGGGATCGTGGGGAC
Residues (chain): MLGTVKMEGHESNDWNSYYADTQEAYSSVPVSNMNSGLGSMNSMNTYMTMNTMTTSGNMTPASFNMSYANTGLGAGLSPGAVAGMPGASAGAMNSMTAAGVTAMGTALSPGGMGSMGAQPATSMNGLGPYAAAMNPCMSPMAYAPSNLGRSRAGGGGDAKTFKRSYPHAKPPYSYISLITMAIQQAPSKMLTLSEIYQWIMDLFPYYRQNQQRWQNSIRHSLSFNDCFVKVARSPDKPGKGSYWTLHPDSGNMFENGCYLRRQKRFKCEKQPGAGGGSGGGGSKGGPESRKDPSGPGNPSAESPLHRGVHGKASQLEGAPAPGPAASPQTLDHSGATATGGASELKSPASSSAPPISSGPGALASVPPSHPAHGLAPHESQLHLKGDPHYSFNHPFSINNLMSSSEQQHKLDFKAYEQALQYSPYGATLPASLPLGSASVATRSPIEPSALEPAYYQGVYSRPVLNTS
| Oligonucleotide | normalised bound fraction [ratio] |
| --- | --- |
| AGTGCTTCATTTTTCGTGCCCGCCCCGCGCCCCGGGCAGGCCAGTCATGTGTTAAGTTGCGCTTCTTTGCTGTGATGTGGGTGGGGGAGGAAGAGTAAACACAGTGCTGGCTCGGCTGCCCTGAGGGTGCTCAATCAAGCACAGGTTTCAAGTCTGGGTTCTGGTGTCCACTCACCCACCCCACCCCCCAAAA | 0.309 |
| AAAGAAAGCAGCTCACTGGGTGAAGGACCTTGAGAAAGAGATGAACATTTCCTCTCTTGAGACACAGGACAAACATGCTCACGCCTGAGCTCGGCAAACAAGGACTTCGGTGCCTGCCTACGGCGCCATTGCGCCCTCTAGTGGCTGCTGAGGAACCGCTGTCCAGCCCGAAGCTCACAGAGCCCCGTTCAGG | 0.0785 |
| AAGGCATCCCATAGATGATGGTTACAAATCAGCACAGGATTAAAATAGTGCCCCCAACACATTAAAAGCTGACTCTGCTGGGTGTGGCTTAAGTAATCTTCTCGTCTCAACTGGACAGCTACCCAGTAACACAGCCACAGAAACCGAAAATATGTGAGTACATAAGTAAAGTGCTTCTTTTGGAGGGGGTGGG | -0.0311 |
| ATCTTCCCCCTCTTCCTTGCCCCACCAGCTCACCTTCCCGGGTTATTTGCAGATAGGAAAATAAATAAAGCCGGCATTCGTTAACCCTCTTCTGGCGCAAACTGCTGTTTGCTCTGGATGAATCATGGTCCTTTGGCGACGCCAGGCTCCGGGAGAGCAAAGCACCGTGTCAGGACTGCCAGCTGGGGTGGCC | 0.346 |
| ATCTTCCCCCTCTTCCTTGCCCCACCAGCTCACCTTCCCGGGTATATTGGAGATAGGAAATTAATATAAGCCGGCATTCGTTAACCCTCTTCTGGCGCAAACTGCACATTGGTCTGGATGAATCATGGTCCTTTGGCGACGCCAGGCTCCGGGAGAGCAAAGCACCGTGTCAGGGCCATGATCCGGGGTGGCC | 0 |
| TTTACTTCTTATATTTCACTCTGGGTTGACCCTAGGGAACATAAAACCAGATTCTACTGATCTTCCCTTATCAGATGTTTGGTTTTCTCTAAGCAAACATCTATCTGGGGAGCATGACAGGGTCATGACAGATTTCCCAGTGGGGACTGTGGAGACTGGCTGGAAGGCTATGAGTGAGTGAGCTGACATCCAC | 0.301 |
| TTATGTACTTGGAGCAGTTATAGGCACAGTATTTTATTTCCAAGAAAGCAGTGTAGAGGGGCCAAGTAGCATATAGATGGTATATTTAAAAAGTAATCTTGCAGTAAATACTTAGTACTCTCTGTACAGAATAAATGAAAATCCAACTCATTACAGATTAGAAAAATTATATGTGGATGGAAAGAACAGTTAT | -0.00255 |
| CTCATTCCTTGCTTCCGCCAATAATCTGACTAGTAAAGAAGTCACTGCATGCCACAAATTGTCAGTGCTGACTTCCTCAACAAGGAAGTATAAGTAAATAAATATTAATATAGAGTGACTCAGTATGCAAATTCCATCTTGAGAATACCAACTCCTGATGCCAACTGATTGTCAGTCATGGCTACAACAGGAG | 0.416 |

Sample 6
Target: Histone acetyltransferase KAT6A, winged helix 2, GST fusion (KAT6A, Homo sapiens, UniProt Q92794, residues 85-181)
Method: protein binding microarray
Form: double-stranded DNA, one strand shown
Sample: in vitro
Tested at: not given
Notes: 8-mer, flanks averaged, mean of 2 arrays, mostly near background
Baseline: not given
Direction: higher = stronger binding
Construct (chain): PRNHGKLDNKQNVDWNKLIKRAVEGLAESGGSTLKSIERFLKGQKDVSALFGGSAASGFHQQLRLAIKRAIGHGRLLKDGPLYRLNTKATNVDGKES
| Oligonucleotide | E-score |
| --- | --- |
| AAAACTCA | 0.152 |
| ATGTTCCA | 0.0658 |
| ACTGTATA | -0.153 |
| GGCCCGGA | 0.119 |
| ATCTGACC | 0.0444 |
| TAATCAAA | 0.0918 |
| CTGAGATC | -0.0513 |
| CGGAAGCA | 0.196 |
| AATTAGAT | 0.0739 |
| TAACCAAA | -0.013 |
| ACCCCCCT | -0.18 |
| ATACCATC | -0.0325 |
| ATAATGAC | -0.151 |
| TATAGCGA | -0.135 |
| GAGCTACA | -0.0502 |
| CCTACAAA | 0.0748 |
| CGGGGAAC | 0.224 |
| CATGGCGG | 0.175 |
| AGTGTTGA | -0.0192 |
| CACCCTGC | 0.187 |
| TACTCTCA | -0.00906 |
| ATAAGGAT | -0.0588 |
| ACCCCCCA | -0.123 |
| AAGGACCA | -0.0322 |

Excerpt of the above (sample 6):
| Oligonucleotide | E-score |
| --- | --- |
| TAACCAAA | -0.013 |
| ACCCCCCT | -0.18 |
| ATACCATC | -0.0325 |
| ATAATGAC | -0.151 |
| TATAGCGA | -0.135 |
| GAGCTACA | -0.0502 |
| CCTACAAA | 0.0748 |
| CGGGGAAC | 0.224 |
| CATGGCGG | 0.175 |
| AGTGTTGA | -0.0192 |
| CACCCTGC | 0.187 |
